Results gathered from unrelated publications.
Numbered parts are unrelated; each lists some results of a single study. Positions count from the first letter of the parent shown.

Study 1
Target: Interferon regulatory factor 7, full length, phosphomimetic (IRF7, Homo sapiens, UniProt Q92985, residues 1-503, S101K/S471D/S472D/S475D/S476D/S477D/S483D/S484D/S487D)
Method: protein-binding microarray
Molecule type: double-stranded DNA, one strand shown
Medium: in vitro
Tested at: 250 nM
Setting: 60-bp whole probe
With: salmon DNA 0.4 mg/ml
Relative to: random background probes
Reading: higher = stronger binding
Constant ends, left off below: GCCTAGCAC … GTCTTGATTCGCTTGACGCTGCTG
Target sequence (chain): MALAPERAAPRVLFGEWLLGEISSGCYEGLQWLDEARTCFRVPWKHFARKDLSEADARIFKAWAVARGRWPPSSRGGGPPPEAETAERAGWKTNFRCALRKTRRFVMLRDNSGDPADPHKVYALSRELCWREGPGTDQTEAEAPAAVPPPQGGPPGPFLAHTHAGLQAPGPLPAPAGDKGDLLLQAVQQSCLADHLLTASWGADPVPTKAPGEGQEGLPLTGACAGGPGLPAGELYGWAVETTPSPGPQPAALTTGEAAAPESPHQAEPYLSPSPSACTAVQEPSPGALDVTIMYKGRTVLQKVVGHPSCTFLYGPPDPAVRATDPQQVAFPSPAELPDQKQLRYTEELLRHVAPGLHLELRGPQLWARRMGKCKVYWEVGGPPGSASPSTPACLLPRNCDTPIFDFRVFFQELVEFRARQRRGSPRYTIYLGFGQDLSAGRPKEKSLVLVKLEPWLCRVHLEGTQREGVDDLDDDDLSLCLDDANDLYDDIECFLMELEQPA
| Strand | log fluorescence |
| --- | --- |
| TTAGAACTGGGGTTTCGATCAGTGCTA | 1.64 z-score |
| GGAGTTTTCTCATTCGTCATGTGCTAG | 0.746 z-score |
| ACAAAGATTTTTATCAAATGGTGCTAG | 0.414 z-score |
| TTCGAATTCAGAATGGGAGAGTGCTAG | 0.0666 z-score |
| GCCGATATCAGTCTCGAGACGTGCTAG | 0.601 z-score |
| TTAGATTTCGGGTATCGCTTAGTGCTA | 1.39 z-score |
| TTCTCCATGGGTATGGCCTAGTGCTAG | 0.26 z-score |
| TCAGGTTCCCTTTTCCTTTAGTGCTAG | 3.91 z-score |

Study 2
Target: TAR DNA-binding protein 43, full length, His tag (TARDBP, Homo sapiens, UniProt Q13148, residues 1-414)
Method: RNA Bind-n-Seq
Molecule type: RNA
Medium: in vitro
Tested at: 20 nM
Setting: 6-mer, flanks averaged, single round
With: 150 mM LiCl
Relative to: input library
Reading: higher = stronger binding
| Strand | 6-mer enrichment (R) |
| --- | --- |
| UGUGAG | 1.57 |
| GCAGCU | 0.918 |
| CAUUUA | 0.986 |
| ACUUAU | 0.947 |
| ACGUCU | 0.855 |
| CCCCUG | 1.17 |
| UACCAG | 0.852 |
| AAGAGC | 0.903 |

Further values, each from its own experiment
P1: PafA, mature enzyme, eGFP fusion (Elizabethkingia meningoseptica, UniProt Q9KJX5); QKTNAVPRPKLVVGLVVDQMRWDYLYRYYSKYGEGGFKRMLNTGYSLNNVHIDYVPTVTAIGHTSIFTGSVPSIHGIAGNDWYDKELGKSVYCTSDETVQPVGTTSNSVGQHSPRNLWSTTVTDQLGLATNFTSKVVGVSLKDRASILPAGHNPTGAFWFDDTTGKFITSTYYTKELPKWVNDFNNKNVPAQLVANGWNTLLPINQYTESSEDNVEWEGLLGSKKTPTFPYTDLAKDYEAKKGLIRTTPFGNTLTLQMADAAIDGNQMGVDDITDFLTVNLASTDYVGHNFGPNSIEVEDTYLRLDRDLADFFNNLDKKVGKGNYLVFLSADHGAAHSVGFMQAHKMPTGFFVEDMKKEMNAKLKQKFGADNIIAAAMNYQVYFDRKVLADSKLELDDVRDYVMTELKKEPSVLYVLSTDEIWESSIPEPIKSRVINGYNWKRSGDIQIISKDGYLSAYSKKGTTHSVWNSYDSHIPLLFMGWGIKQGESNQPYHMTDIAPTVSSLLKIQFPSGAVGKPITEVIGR
| Molecule | target or system | assay | system | conditions | how to read | measurement | result |
| --- | --- | --- | --- | --- | --- | --- | --- |
| ZBBX (Homo sapiens, UniProt A8MT70) | DYNC2I1 (Homo sapiens, UniProt Q8WVS4) | cross-linking MS | cell fractions | with: DMTMM | – | cross-linked residues | K213 to D182 |
| P1 M356G | tungstate, free oxyanion | microfluidic competitive inhibition | in vitro, cell-free expressed | not given, derived from inhibition constants, unchanged parent 2230 nM | lower = stronger binding | oxyanion analog dissociation constant | 2.28 µM |

Some of these lines once more (study 2):
| Strand | 6-mer enrichment (R) |
| --- | --- |
| ACUUAU | 0.947 |
| ACGUCU | 0.855 |
